{"data": "Experimental data of several laboratories", "note": "Parts stem from different laboratories: compare values within a part only."}
{"data": "Series 1", "target": "RNA binding protein fox-1 homolog 2, RRM domain, GST-SBP tag (RBFOX2, Homo sapiens, UniProt O43251-10, residues 100-194)", "method": "RNA Bind-n-Seq", "molecule type": "RNA", "matrix": "in vitro", "concentration": "365 nM", "notes": "natural RNA segment, single round, ends assumed", "baseline": "no-protein control", "reading": "higher = stronger binding", "Target sequence (chain)": "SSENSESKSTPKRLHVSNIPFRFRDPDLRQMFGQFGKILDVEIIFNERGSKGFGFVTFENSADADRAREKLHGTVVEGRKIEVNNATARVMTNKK"}
{"Sequence": "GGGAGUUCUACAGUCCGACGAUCUCAGCCCUCCAUUCCGUCUAGCUGCCUUAGUAAGGAACCUGGGGGUGUGGUUAGUGGAAGACCUGGAGACAAAGGGGACUGUGGCUGGUGUCACCUGGAGAUGCCCUCUAUGGAAUUCUCGGGUGCCAA", "RBNS enrichment (R)": 0.273}
{"Sequence": "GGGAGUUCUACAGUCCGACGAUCGCAGGAACCCUGGAAGAGAAGCGCACAUUUGGGAAGAGCACAUGCAGAUCCAGGCCUGUGGCUCGGCCCCGCUCAGCCCCAUAGUGGGUGGCAGCAGUGCUCUCUCCUGCUGGAAUUCUCGGGUGCCAA", "RBNS enrichment (R)": 0.389}
{"Sequence": "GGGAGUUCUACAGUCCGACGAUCGGUACCAAUCAUUGAUUUUUUUUUUUUUUGUAAACUAAAAUGUUUAAAAUAAAAUAGCAUUUACAGUUUUACAGACUGGUGUAACCUAAAUGAAUUGUUACCUGUGUUACUGGAAUUCUCGGGUGCCAA", "RBNS enrichment (R)": 0.782}
{"Sequence": "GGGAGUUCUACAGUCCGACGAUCACAUGGCAGGUCUGUAGGGGUCAGACCCGAGCAGCCUGGACUUUACAGUUAUGUGAAACUGUCCACAAAAAGUCAUGGCAAUAAUGGUGUAAAGAAAAUAGUUUCUUGGGUGGAAUUCUCGGGUGCCAA", "RBNS enrichment (R)": 0.409}
{"Sequence": "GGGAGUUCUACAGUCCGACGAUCCAGAAAAGAUUUAUUAGAAAACCCUCACCCCAACCUGGUGAGGCAGUCACUCAUGACUGGAGGAAACAGGCUUCCUCCACAAAAGUCUCUCUAUAAAAUAUAUAAAACACUGGAAUUCUCGGGUGCCAA", "RBNS enrichment (R)": 0.537}
{"Sequence": "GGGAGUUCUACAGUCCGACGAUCCUGUUGGAAAGGGAAAAAUUCACCAUAUCCAAGGGGAGAGACGAUGGGCUGGGUUUGUUUACUCCAACUUCCCUUCUACACCCCUCCUGCAGGACAGUACGAUUUGGGGAUGGAAUUCUCGGGUGCCAA", "RBNS enrichment (R)": 0.354}
{"Sequence": "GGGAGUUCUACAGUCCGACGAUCCCUUCUCAUGCUGCCGGCUCAUCUGGGCCCAUAGAGUGGGCUUUGCCAGUUGCUGUUGCACAGGAGGCGAGAACAGCACACUUCAACCCCAGCUUGCUGGUCGGCUUUCCUGGAAUUCUCGGGUGCCAA", "RBNS enrichment (R)": 0.378}
{"Sequence": "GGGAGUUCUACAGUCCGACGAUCGAGCCGCCACCGGCAACUAACCUAUGACCUUCUGACCUCUGAACUCUUCACCCAAUGAUGACCUGACCAUGCCUGCCUGCUGAUCAGUUAACUGGUAAUCGCCUUUGCUUUGGAAUUCUCGGGUGCCAA", "RBNS enrichment (R)": 0.501}
{"Sequence": "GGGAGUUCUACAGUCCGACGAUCAGGUCAUGUUCUAAAAUUAAGGCUGAGAAAGGUGUGAGGUCGAAGAUCUCAGGCAGCGCUGUUUCCUGUGAAGAAAAAAAAAGUGUAUAUAUCCAUAGAUAUAGUACUUUUGGAAUUCUCGGGUGCCAA", "RBNS enrichment (R)": 0.447}
{"Sequence": "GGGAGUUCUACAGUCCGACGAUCUUGACCUCUGUCUUGACAGUGCCCUCCACAACUGUGUCCUGUGUGGGAGACUCACCCCACACGCCCUCCCCAGGGCACGUGCUGGUGUUUCCUCACGCUGGUUUCUCUGGUGGAAUUCUCGGGUGCCAA", "RBNS enrichment (R)": 0.171}
{"Sequence": "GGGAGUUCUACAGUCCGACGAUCGUAAGGCUAGAGCCCAGGUCUGCCGACACCCUGUGCUUGUUGCACACUUGAUUUGCUAAGGCUGGAGACAGGCACCAUUGCCAUGGGGCUGGUCCUAGUCACUGGCCGAGUGGAAUUCUCGGGUGCCAA", "RBNS enrichment (R)": 0.483}
{"Sequence": "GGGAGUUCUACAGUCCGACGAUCGGACAGUGAAGAGGGUUGGGGCAAUGGCUCAGCUAUGUAAGUGUGUGUGUGCAGUUCAAUCCCGAGGACUGGAAUUUGGAUCCCACCACACACAUAACAAGCCACAUAUUUGGAAUUCUCGGGUGCCAA", "RBNS enrichment (R)": 0.835}
{"data": "Series 2", "target": "Prothrombin, mature alpha-thrombin (F2, Homo sapiens, UniProt P00734)", "method": "aptamer microarray, sandwich", "molecule type": "DNA with 2'F-ANA", "matrix": "in vitro", "concentration": "200 nM", "notes": "whole 15-mer aptamer, many near background", "with": "Cy3 exosite-II aptamer, 400 nM", "reading": "higher = stronger binding", "sequence": "GGTTGGTGTGGTTGG"}
{"Modification": "2'F-ANA at 2 3 5 7 9 10 11 15", "mean fluorescence intensity [a.u.]": 55.3}
{"Modification": "2'F-ANA at 1 2 3 5 8 9 12 14 15", "mean fluorescence intensity [a.u.]": 52.4}
{"Modification": "2'F-ANA at 1 3 12 13", "mean fluorescence intensity [a.u.]": 490}
{"Modification": "2'F-ANA at 1 2 5 8 9 10 14", "mean fluorescence intensity [a.u.]": 50.5}
{"Modification": "2'F-ANA at 1 10 11 12 13 14", "mean fluorescence intensity [a.u.]": 52.7}
{"Modification": "2'F-ANA at 1 3 6 7 9 11 12 13 14", "mean fluorescence intensity [a.u.]": 90.1}
{"Modification": "2'F-ANA at 2 5 6 7 8 10 12 14 15", "mean fluorescence intensity [a.u.]": 50.5}
{"Modification": "2'F-ANA at 1 3 6 7 9 11 13 14 15", "mean fluorescence intensity [a.u.]": 74.4}
{"Modification": "2'F-ANA at 1 2 3 5 6 8 9 10 13", "mean fluorescence intensity [a.u.]": 50.9}
{"Modification": "2'F-ANA at 2 3 4 5 6 7 9 11 13 14", "mean fluorescence intensity [a.u.]": 48.4}
{"Modification": "2'F-ANA at 1 3 6 9 10 11 13 15", "mean fluorescence intensity [a.u.]": 65.9}
{"Modification": "2'F-ANA at 3 4 5 6 8 9 10 15", "mean fluorescence intensity [a.u.]": 48.3}
{"Modification": "2'F-ANA at 2 5 6 7 8 11 13 15", "mean fluorescence intensity [a.u.]": 61.7}
{"Modification": "2'F-ANA at 1 3 10 12 13 15", "mean fluorescence intensity [a.u.]": 111}
{"Modification": "2'F-ANA at 2 3 4 6 9 10 15", "mean fluorescence intensity [a.u.]": 224}
{"Modification": "2'F-ANA at 1 2 3 10 13 14 15", "mean fluorescence intensity [a.u.]": 49.3}
{"Modification": "2'F-ANA at 5 6 7 9 12", "mean fluorescence intensity [a.u.]": 178}
{"data": "Series 3", "target": "Hepatocyte nuclear factor 3-alpha (Foxa1, Mus musculus, UniProt P35582, residues 1-468, full length assumed)", "method": "EMSA with sequencing", "molecule type": "double-stranded DNA, one strand shown", "matrix": "in vitro", "concentration": "10 and 20 nM", "notes": "whole designed probe, mean of two concentrations, ends assumed", "baseline": "negative control set to 0", "reading": "higher = stronger binding", "Residues (chain)": "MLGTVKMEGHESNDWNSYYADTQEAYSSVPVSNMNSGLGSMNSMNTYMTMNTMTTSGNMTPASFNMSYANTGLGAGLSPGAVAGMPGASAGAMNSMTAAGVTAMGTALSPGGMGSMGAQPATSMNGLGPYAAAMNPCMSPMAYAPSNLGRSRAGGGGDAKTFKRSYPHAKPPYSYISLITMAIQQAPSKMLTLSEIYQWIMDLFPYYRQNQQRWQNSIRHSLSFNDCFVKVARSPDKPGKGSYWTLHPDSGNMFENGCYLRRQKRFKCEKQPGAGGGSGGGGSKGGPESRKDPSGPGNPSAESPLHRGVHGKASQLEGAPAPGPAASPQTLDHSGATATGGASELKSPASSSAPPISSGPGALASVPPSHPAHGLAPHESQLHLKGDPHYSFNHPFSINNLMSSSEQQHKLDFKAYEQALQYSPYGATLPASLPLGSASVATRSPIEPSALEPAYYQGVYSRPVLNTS"}
{"Sequence": "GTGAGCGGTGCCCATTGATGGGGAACATCTTCCCCCTCTTCCTTGCCCCACCAGCTCACCTTCCCGGGTTATTTGCAGATAGGAAAATAAATAAAGCCGGCATTCGTTAACCCTCTTCTGGCGCAAACTGCTGTTTGCTCTGGATGAATCATGGTCCTTAGGCTCGGCCAGGCTCCGGGAGAGCAAAGCACCGTGTCAGGGCCATGATCCGGGGTGGCCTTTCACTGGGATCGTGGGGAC", "normalised bound fraction": "0.331 ratio"}
{"Sequence": "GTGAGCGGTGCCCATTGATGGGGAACCCTGCACTCCTGCCGGTGGCCTGACCCCTTCTGCCCTGTGCCAATTGTCTGCACCCTCCATCCGGGGTTTGCCAGTCAGCCGGCCCAGAGCTATGTAATCTACAAGTCTAGATGTGTCCCTATTTGGGCAACTCTGCAAGGGAAAAATAAGAAGTTGTTAGAATGCTAAGAATGCAGAGCATCCGGAGATTCCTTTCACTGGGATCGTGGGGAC", "normalised bound fraction": "-0.0683 ratio"}
{"Sequence": "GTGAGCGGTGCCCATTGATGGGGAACTTACTGACATGAAGAGCGTTGCTATAGTTTTAAGAGATTTTTTTTTTCTGATTTTAAACAAAAACTAGAATAAAAATTTTCACACTTTCAAAGTAAACAGAAAGGGGGGGATTGTGACATTTAGCACATGCAGTATGAGAATTATTGGTAAAAGAAAAGCCAAAAAAGGTTTACAACTGTCCCACGACAAAAATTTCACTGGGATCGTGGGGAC", "normalised bound fraction": "0.324 ratio"}
{"Sequence": "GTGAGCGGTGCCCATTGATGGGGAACATGTGGGAACTAATTGAGGACCATGTTTACAATGCGTACAAATCATAAATCAATTAGTTCATATTGATTTACAAAAAGACAAGGAAGAATATTTGTTTACATTGATACTGTCCATGTAAACTTTTTTCAATTCAAAAGAAACACATAGTTCTGTCATAAAGTAGATTTTCTATCCCTTTTATTTTCTGAGCTTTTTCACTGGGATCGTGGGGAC", "normalised bound fraction": "0.5 ratio"}
{"Sequence": "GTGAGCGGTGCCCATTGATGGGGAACGGTCAGAGAATGCTAATCAGCCATGAAGTGGGCTTGCCATGACTCTGACACTGTATCTCCTGGTGCACTCTGCGGTAGGTGCATCTTTGCTGAGTAAATACAAAGTGAACTTGACGGGAAAGGAGACCTTAGCAGTCCTACAAAGGCAATTTTGCAAGCTGTCTGGCTGTGGAATTAGTGGAATGTTTTCTCATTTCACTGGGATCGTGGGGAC", "normalised bound fraction": "0.328 ratio"}
{"Sequence": "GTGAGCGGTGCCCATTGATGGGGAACAAGACCGGCAGCCTCTGGTTCCTGTTGTTGTTTTTTAAGTGCGCGGAGGCGCAGGCGAAACTCGGAGTTTCCAACTCGTTGCTTATTTTGCAAAGTAAACAAGCAAATGTTATGTGCATAACCTTCGCTGTCTCGCTAAAGGTCAGCGCGCCCCTGCTCATTTCCCGGGCTGCCTTTTGGGGGCACTCTGATGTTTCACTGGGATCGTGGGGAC", "normalised bound fraction": "0.46 ratio"}
{"Sequence": "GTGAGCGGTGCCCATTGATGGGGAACGCTCGAGGCTGGGCGGACAGCTCCCTTTCTCCCGGAGTTGACGTCTGATGTGGGTTATAAATCCCGCTGTGTAAACGTCTGTCCACTCACTGGGCAATCTTTCCTACACCCGCCCTCCCCGGGGAGCTCCAGGGTGCAGGGCGTGGACCTGCCCAGCCCTTCAGGGCCAGAAGGCACGGTGGAGCCGGTCTGCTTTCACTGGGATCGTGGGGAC", "normalised bound fraction": "0.0275 ratio"}
{"Sequence": "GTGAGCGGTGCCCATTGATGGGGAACCCAGTGAATATATATATATATTTTCAAATTTGATTTTCCAAATGTCCCGGGAGCACATGCCCTGTTTCCTAATGAATCTCCGGGGTTCTTCAGAGTAAACAACAAAACATAGCATTCCTGCTTTGGGACTCCAGCCCTCCACCCTGGGGAGCACGTGTCTCCTTGACCATGGTCATCTCCTACTAGACCGGAGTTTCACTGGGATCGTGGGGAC", "normalised bound fraction": "0.286 ratio"}
{"data": "Further values, each from its own experiment"}
{"Substance": "PhoQ, residues 284 288 289 292 302 303 ASASEQ", "target": "PhoP, residues 12 14 15 18 19 TPWTL (Escherichia coli, UniProt P23836)", "assay": "Sort-seq, refers to: YFP reporter", "system": "E. coli", "conditions": "PhoQ-PhoP variant library, with: 10 µM Mg2+", "how to read": "baseline: high Mg2+ state, higher = stronger signaling", "quantity": "fold induction", "value": 0.949}
